Measurements collected from several papers.
Parts stem from different laboratories: compare values within a part only. Values joined by “and” are separate records of one study, mostly repeats; a detail may differ. ± marks the error that the study gave. In brackets after ≈: the same amount, converted by molar mass.

Study 1
Compound: CCCCC[C@@H]1CC(=O)N[C@@H](C(C)C)C(=O)N[C@H](CCCNC(=N)N)C(=O)N[C@@H](CO)C(=O)NCC(=O)N(C)[C@H](Cc2ccccc2)C(=O)N[C@@H](CC(C)C)C(=O)N[C@H](CCCNC(=N)N)C(=O)N[C@@H](CC(N)=O)C(=O)N[C@H](C(C)C)C(=O)N[C@H](Cc2c[nH]c3ccccc23)C(=O)NCCCC(=O)O1
Organism: Staphylococcus aureus
Strain: USA300
Quantity: MIC
together with = menaquinone 0 µg/mL; result = 4 µg/mL (≈ 2.75 µM)
together with = menaquinone 64 µg/mL; result = > 64 µg/mL
together with = menaquinone 1 µg/mL; result = 16 µg/mL (≈ 11 µM)
together with = menaquinone 8 µg/mL; result = 64 µg/mL (≈ 43.9 µM)
together with = ubiquinone 64 µg/mL; result = 4 µg/mL (≈ 2.75 µM)
together with = menaquinone 32 µg/mL; result = > 64 µg/mL
together with = menaquinone 4 µg/mL; result = 32 µg/mL (≈ 22 µM)
together with = ubiquinone 4 µg/mL; result = 4 µg/mL (≈ 2.75 µM)

Study 2
Structure (SMILES): Cn1cc(-c2cccc(CN3CCC4(CC3)COc3c4ccc4c3CN(C3CCC(=O)NC3=O)C4=O)c2)cn1 (stereo not shown)
Target: CRBN/Zinc finger protein Helios (Homo sapiens, UniProt Q96SW2+Q9UKS7)
Chain of UniProt Q9UKS7 (whole entry, looked up): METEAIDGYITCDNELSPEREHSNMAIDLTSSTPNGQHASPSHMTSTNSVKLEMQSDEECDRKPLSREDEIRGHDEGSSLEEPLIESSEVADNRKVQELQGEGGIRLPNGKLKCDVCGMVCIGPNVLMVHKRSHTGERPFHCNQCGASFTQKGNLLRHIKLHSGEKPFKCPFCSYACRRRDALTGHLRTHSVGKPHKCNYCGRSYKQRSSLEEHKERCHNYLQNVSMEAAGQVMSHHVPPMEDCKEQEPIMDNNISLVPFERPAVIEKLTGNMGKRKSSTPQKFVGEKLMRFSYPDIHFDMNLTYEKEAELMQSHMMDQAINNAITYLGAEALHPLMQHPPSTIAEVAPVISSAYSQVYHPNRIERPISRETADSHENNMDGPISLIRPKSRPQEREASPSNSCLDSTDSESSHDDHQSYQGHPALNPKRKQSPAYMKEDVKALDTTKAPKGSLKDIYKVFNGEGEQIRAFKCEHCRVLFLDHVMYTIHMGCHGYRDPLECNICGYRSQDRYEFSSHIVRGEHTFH
Chain of UniProt Q96SW2 (whole entry, looked up): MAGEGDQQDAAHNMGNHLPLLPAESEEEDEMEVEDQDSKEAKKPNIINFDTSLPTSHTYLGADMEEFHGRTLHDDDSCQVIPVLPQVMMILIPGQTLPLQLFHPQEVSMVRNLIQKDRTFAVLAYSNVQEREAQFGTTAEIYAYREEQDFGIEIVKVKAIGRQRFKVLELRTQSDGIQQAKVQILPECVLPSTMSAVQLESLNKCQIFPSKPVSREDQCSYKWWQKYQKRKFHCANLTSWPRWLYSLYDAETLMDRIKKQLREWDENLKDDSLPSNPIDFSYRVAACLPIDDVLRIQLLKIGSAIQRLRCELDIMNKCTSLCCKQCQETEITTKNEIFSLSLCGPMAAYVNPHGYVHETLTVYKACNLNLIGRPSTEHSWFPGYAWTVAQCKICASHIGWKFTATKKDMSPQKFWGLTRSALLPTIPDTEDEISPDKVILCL
Mode: degrader
Method: HiBiT
Cell line: HEK293
Quantity: protein remaining
tested at = 111.1 nM; result = 10.5%
tested at = 0.1524 nM; result = 99.8%
tested at = 4.115 nM; result = 27.2%
tested at = 1.372 nM; result = 53.5%
tested at = 0.05081 nM; result = 112%
tested at = 1000 nM; result = 12.1%

Study 3
Structure (SMILES): Cc1ccc(O)c(C)c1-c1cnc2[nH]c(-c3cnc(N4CCC(CN5CCN(c6ccc(N7CCC(=O)NC7=O)cc6F)CC5)CC4)nc3)cc2c1C#N
Cell line: HCC1569
Method: in-cell western
Measured: CDK1 phospho-Thr14
Quantity: pCDK1 (Thr14) level
tested at = 1000 nM; result = 99.9% and 95.5%
tested at = 12.35 nM; result = 15.3% and 16.3%
tested at = 37.04 nM; result = 19% and 28.9%

Further values, each from its own experiment
Organism: Plasmodium falciparum
Time: 72 h
SMILES = O=[N+]([O-])c1ccc(C2=NOC3(NC(c4ccccc4)=NO3)N2c2ccccc2)cc1 (stereo not shown); method = SYBR Gold; strain = SB1-A6, atovaquone-resistant; tested at = concentration not given; quantity = antiplasmodial activity; result = inactive
SMILES = FC(F)(F)c1ccc(C2=NOC3(NC(c4ccccc4)=NO3)N2c2ccccc2)cc1 (stereo not shown); read-out = parasite growth; strain = W2mef multidrug-resistant; quantity = IC50; result = 300 ± 90 nM

Some of these lines once more (study 1):
together with = menaquinone 8 µg/mL; result = 64 µg/mL (≈ 43.9 µM)
together with = ubiquinone 64 µg/mL; result = 4 µg/mL (≈ 2.75 µM)
together with = menaquinone 32 µg/mL; result = > 64 µg/mL
